# Experimental data pooled from the literature.
# Each numbered part is a random draw from the data of one study; scales do not carry over between parts. Changes are numbered by the printed parent chain.

# Set 1 — technique: universal PBM; form: double-stranded DNA, one strand shown; matrix: in vitro; tested at: 600 nM; direction: higher = stronger binding
# Target: Sal-like protein 4, full length isoform A (SALL4, Homo sapiens, UniProt Q9UJQ4, residues 1-1053)
# Sequence of UniProt Q9UJQ4 (whole entry, looked up): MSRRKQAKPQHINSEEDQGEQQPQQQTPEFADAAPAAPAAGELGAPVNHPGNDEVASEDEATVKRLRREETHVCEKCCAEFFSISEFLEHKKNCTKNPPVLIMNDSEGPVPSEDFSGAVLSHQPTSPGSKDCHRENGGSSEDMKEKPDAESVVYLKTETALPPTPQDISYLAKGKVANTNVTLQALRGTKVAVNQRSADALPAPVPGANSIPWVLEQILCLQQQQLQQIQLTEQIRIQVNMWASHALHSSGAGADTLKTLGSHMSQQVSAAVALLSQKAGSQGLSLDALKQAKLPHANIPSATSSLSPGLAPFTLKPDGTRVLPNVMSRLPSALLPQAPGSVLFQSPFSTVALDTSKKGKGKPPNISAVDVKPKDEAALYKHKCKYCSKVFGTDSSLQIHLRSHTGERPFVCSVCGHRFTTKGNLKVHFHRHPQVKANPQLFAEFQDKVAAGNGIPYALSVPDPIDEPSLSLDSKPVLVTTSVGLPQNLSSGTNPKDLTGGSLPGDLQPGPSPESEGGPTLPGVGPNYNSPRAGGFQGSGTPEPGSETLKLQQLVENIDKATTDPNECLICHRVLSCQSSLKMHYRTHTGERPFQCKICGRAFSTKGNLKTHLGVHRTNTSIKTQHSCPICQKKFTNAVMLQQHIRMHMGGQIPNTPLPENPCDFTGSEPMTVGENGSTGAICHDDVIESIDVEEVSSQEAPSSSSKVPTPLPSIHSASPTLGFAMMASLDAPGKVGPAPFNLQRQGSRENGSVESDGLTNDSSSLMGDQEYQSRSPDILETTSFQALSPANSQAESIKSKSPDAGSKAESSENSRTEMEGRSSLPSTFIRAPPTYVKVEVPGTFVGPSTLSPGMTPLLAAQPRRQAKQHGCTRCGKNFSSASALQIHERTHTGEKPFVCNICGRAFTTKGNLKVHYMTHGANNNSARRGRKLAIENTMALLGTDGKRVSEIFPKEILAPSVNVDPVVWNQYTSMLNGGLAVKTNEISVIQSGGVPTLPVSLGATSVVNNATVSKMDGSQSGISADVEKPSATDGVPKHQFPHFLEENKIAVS
# Notes: 8-mer, flanks averaged, mean of replicates
Sequence,E-score
GGTCTTAC,-0.0969
GGCCTTGA,-0.186
CGTAGCTC,-0.0959
AAGCCAGC,-0.227
AAACGAGA,0.106
TGGAGCAA,0.0757
CTCGTACA,0.0327
AATAGTCG,-0.0187
CGGCCCAA,-0.252
ATTGCCGG,-0.212
AGGTTTAT,0.308
AACGTCCG,-0.282
AGCGGAAG,-0.153
GCGGAAGC,-0.295
AGCAATCC,-0.121
CGAATAGC,0.0715
AGGCTAAA,-0.0386
GCGAACTA,-0.00536
CTGAATTC,-0.00932
AGGGTGCC,-0.177
TAATTGAA,0.228
CAGGGGTA,-0.145
AGTCCGTC,-0.158
AAGATGTC,0.00715
TGAAGACA,0.136

# Set 2 — technique: DHFR PCA, deep sequencing; matrix: yeast; added: (+)-ABA 0 µM; reference: wild-type fitted maximum; direction: higher = stronger binding
# Target: ABI1, truncated, D143A, DHFR fusion (Arabidopsis thaliana)
# Notes: methotrexate growth selection, single substitutions
# Starting sequence: PYL1, truncated, DHFR fusion (Arabidopsis thaliana); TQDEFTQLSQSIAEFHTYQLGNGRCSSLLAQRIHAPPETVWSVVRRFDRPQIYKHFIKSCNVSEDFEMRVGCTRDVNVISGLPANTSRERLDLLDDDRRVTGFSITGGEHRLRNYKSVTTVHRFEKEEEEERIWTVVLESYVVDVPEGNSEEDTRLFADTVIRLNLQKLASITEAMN
Substitution,relative binding score [%]
I105R,1.61
L20W,2.02
F15H,15.8
E131T,43.7
F103S,0.74
N165M,8.69
S80I,22.1
F5S,3.29
L138D,0.984
E67T,20.2
G102P,-0.935
Y115R,2.02

# Set 3 — technique: RNA Bind-n-Seq; form: RNA; matrix: in vitro; tested at: 200 nM; notes: whole 134-nt RNA, ends assumed; added: 150 mM LiCl; reference: input library; direction: higher = stronger binding; all molecules: 7-deaza-guanosine replaces G
# Target: Ras GTPase-activating protein-binding protein 1, full length (G3BP1, Homo sapiens, UniProt Q13283)
# Sequence of UniProt Q13283 (whole entry, looked up): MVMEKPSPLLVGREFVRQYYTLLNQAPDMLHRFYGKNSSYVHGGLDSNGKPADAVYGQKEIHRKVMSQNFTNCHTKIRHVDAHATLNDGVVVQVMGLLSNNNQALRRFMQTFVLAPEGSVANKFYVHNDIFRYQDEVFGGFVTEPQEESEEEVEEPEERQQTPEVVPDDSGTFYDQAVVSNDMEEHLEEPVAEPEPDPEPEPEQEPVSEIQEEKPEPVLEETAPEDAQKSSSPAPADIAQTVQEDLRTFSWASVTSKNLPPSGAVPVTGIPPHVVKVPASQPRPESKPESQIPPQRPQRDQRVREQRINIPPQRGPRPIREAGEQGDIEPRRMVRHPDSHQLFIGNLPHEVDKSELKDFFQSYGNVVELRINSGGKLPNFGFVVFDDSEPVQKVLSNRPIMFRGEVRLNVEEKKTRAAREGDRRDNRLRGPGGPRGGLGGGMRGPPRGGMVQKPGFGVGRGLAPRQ
# All sequences stand within: GGGAGUUCUACAGUCCGACGAUC … UGGAAUUCUCGGGUGUCAAGG
Sequence,log2 enrichment
CCUGUGCUACACAUCGUAUGUACCGAAUCGGGGCCCCCCGGCCCCCCGGGCCCCCCGGGGAAAGUAUUAUGUUACGCCGUUCGGAUCUGC,0.155
UAACUUUAGAGGAGGAUCUGAUGGAUAUGGCAGUGGACGUGGAUUUGGGGAUGGCUAUAAUGGGUAUGGAUGAGGACCUGGAGGUGGCAA,-0.0928
UCCUGUGCUACACAUCGUAUGUACCGAAUCGGGUUUUUGGGUUUUUGGGUUUUUUUGGGAAAGUAUUAUGUUACGCCGUUCGGAUCUGCA,0.556
UGGCCCUGGUGGCAUGCGGCGAGGAAGAGGUGGCCUCAUGGAUCGUGGUGGUCCCGGUGGAAUGUUCAGAGGUGGCCGUGGUGGAGACAG,0.151
UGGAAUAAGCCUGGUGCUUUCUGGCUAUGUUUGUCAUAGGCUGACCUGGAUAUCACCGAAAUAAACAAACUAACAGCAGAAGCUAUUCAG,-1.68
ACCAUGCAGGUGGGCAUCUUUGGGAAGUGGGGCAAGGGGGGGAUAGGGAGGGGGUUAACACUUUGGGAACAGGUGGUCCCAGGUCGUUUC,0.39
CUCAAGUCCUGUGCUACACAUCGUAUGUACCGAAUCGGUGGUGGAAAAAAAGGAAAGUAUUAUGUUACGCCGUUCGGAUCUGCACUUCCA,0.139
UAACUUUAGAGGAGGAUCUGAUGGAUACGGCAGUGGACGUGGAUUUGGGGAUGGCUAUAAUGGGUAUGGAGGAGGACCUGGAGGUGGCAA,-0.178
UCAAGUCCUGUGCUACACAUCGUAUGUACCGAAUCGGUGGAAAGGUUUUUUUGGAAAGUAUUAUGUUACGCCGUUCGGAUCUGCACUUCC,-0.672
CUGUGCUACACAUCGUAUGUACCGAAUCGGGUUUUUUUGGGAAAAAAAGGGAAAAAAAGGGAAAGUAUUAUGUUACGCCGUUCGGAUCUG,-1.71
CACAGACAACACGCACCCACACAGACCCAGAGGGAAGGGGUUGGGAUGGGGACAGGGUGCACAGCAGGGCGGGGUAGGACCCCAGCCCCU,-0.58

# Set 4 — technique: RNA Bind-n-Seq; form: RNA; matrix: in vitro; tested at: 365 nM; reference: no-protein control; direction: higher = stronger binding
# Target: RNA binding protein fox-1 homolog 2, RRM domain, GST-SBP tag (RBFOX2, Homo sapiens, UniProt O43251-10, residues 100-194)
# Notes: natural RNA segment, single round, ends assumed
# All sequences stand within: GGGAGUUCUACAGUCCGACGAUC … UGGAAUUCUCGGGUGCCAA
# Target sequence (chain): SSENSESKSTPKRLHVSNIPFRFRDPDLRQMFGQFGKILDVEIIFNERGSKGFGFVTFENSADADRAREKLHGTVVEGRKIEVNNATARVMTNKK
Sequence,RBNS enrichment (R)
CUCGCCACAGUUAUCAGCUGCCAUUGCUCCCUGUCUGUUUCCCCACUCUCUUAUUUGUGCAUUCGGUUUGGUUUCUGUAGUUUUAAUUUUUAAUAAAGUUGAAUAAAAUA,1.11
CUUCUCUUUUCUUUCCACAAGGGACAAGAGCUUGGCUUAUUUAGGCUACAGCCCUGCUGCUGCUCCCUUCCUUCUUCUGUCCUGUUUCCAGCCUUGCAAGAAGGCUAUUC,0.806
AAAUAUAUAAGGAUGGACAUUUUAUCGUCUCAUAGUCAUGCUUUUUGGAAAUUUACAUCAUCCUCAAGUAAAAUAAAUAUCAGUUAAAUAUUGGAAGCUGUGUGUAAGAU,0.638
AGUGUAAAUCUACCAGUCAUGGGCCAGAAGGGCAAAAGCCCAGCUUUCUCUUUGGAAAGACUCAGGCUGUGGUUUGUUGAUGGCCAGGUUUUCCUCAGGCUCCAACAACU,0.284
GGUCGGGCUUUCUAAGCUUUGUCAGAUAACUAUUUUUCCUAAGUAUGUGUUUCCUACUCCAGUGAUUGACAAGUGUGCAUUGCCUAUGUUUGUUUAUACUUUAAUUACAA,0.747
AACAGCCCCACACAGCUCUGAUUCCAUAGCUGCAUUAAAGAUGAUUAUUUAUAUUACAGAGAAAAGAGGGAUCGGCCCUCCAAGGACCAGACAGAUUGAGAGAGAGUCAC,0.488
CAUGAAAAUCUCUGAUUCUGACCUCCUAAGGAAAAAUGAAACCCAGAGGAUGUGGUCAUACAGGAUGGCUCCCAUGUGGGCCUAGAACCCAGGAUGCUUCACUCUUGACU,0.483
AGUCUUAAAGGCUGACUGGGAGGCCAUGAACUGUUCACAAGGAGCACGGCUCUGCAGGCGUUGAAUAUUUAAAAGCAUCUAUCUAAGAAAGGCUGUGUAGUAGAACCAGA,0.532
GGGAAUGAAUACCUGUUUGGUCCAAACUUACUGUAUCAUAAUGCUGUAUAUGUUGAAAACGUAAUACCUGUUAAUGUCCUAAUGAAUCACGUUUUGCAGAAAACACCGUA,0.332
CAUCUCCCCACUUUAGGCUUCUCAAACAGACUUUUGACACCUCUCAAGUUCAGAGCUCUGAUGUGGAAAGACAGGAGGUGUGGGGAAGGAGGGGGAUUUCGUGUGUUUGC,0.662
UCGGAGGCCCAGCAUCCUGCAACCGACCCCUUUUUUCUACUGGAAGAGAAAUUUUAUCAUCUUUUGAAAGGAAGUCAUGACUGAAGCAAUAAACCUUUUCACUGAUUCAA,0.644
AAGGUUGAAAUUUAGCCCAGCUCUAGGCAUUUUACAAAUUAUUUUAAGAACAGUCACUCUUGAUUGUUUUACUUUUUAUUUUUAAAUUAAAGAUUGGGAAUGCGUGUGAG,0.701

# Set 5 — technique: protein binding microarray; form: double-stranded DNA, one strand shown; matrix: in vitro; tested at: not given; reference: not given; direction: higher = stronger binding
# Target: Histone acetyltransferase KAT6A, winged helix 2, GST fusion (KAT6A, Homo sapiens, UniProt Q92794, residues 85-181)
# Notes: 8-mer, flanks averaged, mean of 2 arrays, mostly near background
# Target sequence (chain): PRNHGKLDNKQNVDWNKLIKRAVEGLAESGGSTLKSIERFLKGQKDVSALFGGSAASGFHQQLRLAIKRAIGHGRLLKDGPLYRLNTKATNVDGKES
Sequence,E-score
ATGTGGGG,-0.175
TGGTCACA,0.144
GAAAACCA,0.0361
TAATATAA,0.196
AATCTGGC,0.019
GTTGGCGA,0.223
CACAGTTC,-0.144
AAGAACAT,0.0684
ACATTGCC,-0.0993
CGCGTTGC,0.208
ATATCTAA,-0.0509
CCCGTTCC,0.181
CCCATCAC,-0.0124
CTAATTTC,0.0212
AGTGGTGG,-0.0365
CCCGGGAG,0.168
CCATATTA,0.0598
AGGATAGG,-0.0922
CTCCGGCA,0.181
GTGGCGCA,-0.0772
ATCGCAAA,0.117
CGTGTAAG,0.0789

# Repeated from above (set 3):
Sequence,log2 enrichment
CCUGUGCUACACAUCGUAUGUACCGAAUCGGGGCCCCCCGGCCCCCCGGGCCCCCCGGGGAAAGUAUUAUGUUACGCCGUUCGGAUCUGC,0.155
UAACUUUAGAGGAGGAUCUGAUGGAUAUGGCAGUGGACGUGGAUUUGGGGAUGGCUAUAAUGGGUAUGGAUGAGGACCUGGAGGUGGCAA,-0.0928
UCCUGUGCUACACAUCGUAUGUACCGAAUCGGGUUUUUGGGUUUUUGGGUUUUUUUGGGAAAGUAUUAUGUUACGCCGUUCGGAUCUGCA,0.556
UGGCCCUGGUGGCAUGCGGCGAGGAAGAGGUGGCCUCAUGGAUCGUGGUGGUCCCGGUGGAAUGUUCAGAGGUGGCCGUGGUGGAGACAG,0.151
UGGAAUAAGCCUGGUGCUUUCUGGCUAUGUUUGUCAUAGGCUGACCUGGAUAUCACCGAAAUAAACAAACUAACAGCAGAAGCUAUUCAG,-1.68
ACCAUGCAGGUGGGCAUCUUUGGGAAGUGGGGCAAGGGGGGGAUAGGGAGGGGGUUAACACUUUGGGAACAGGUGGUCCCAGGUCGUUUC,0.39
CUCAAGUCCUGUGCUACACAUCGUAUGUACCGAAUCGGUGGUGGAAAAAAAGGAAAGUAUUAUGUUACGCCGUUCGGAUCUGCACUUCCA,0.139
UAACUUUAGAGGAGGAUCUGAUGGAUACGGCAGUGGACGUGGAUUUGGGGAUGGCUAUAAUGGGUAUGGAGGAGGACCUGGAGGUGGCAA,-0.178
UCAAGUCCUGUGCUACACAUCGUAUGUACCGAAUCGGUGGAAAGGUUUUUUUGGAAAGUAUUAUGUUACGCCGUUCGGAUCUGCACUUCC,-0.672
CUGUGCUACACAUCGUAUGUACCGAAUCGGGUUUUUUUGGGAAAAAAAGGGAAAAAAAGGGAAAGUAUUAUGUUACGCCGUUCGGAUCUG,-1.71
CACAGACAACACGCACCCACACAGACCCAGAGGGAAGGGGUUGGGAUGGGGACAGGGUGCACAGCAGGGCGGGGUAGGACCCCAGCCCCU,-0.58
